Measured values of several laboratories.
A part holds a random share of what one study measured. Positions count from the first letter of the parent shown.
Chain of UniProt Q93YR9 (whole entry, looked up): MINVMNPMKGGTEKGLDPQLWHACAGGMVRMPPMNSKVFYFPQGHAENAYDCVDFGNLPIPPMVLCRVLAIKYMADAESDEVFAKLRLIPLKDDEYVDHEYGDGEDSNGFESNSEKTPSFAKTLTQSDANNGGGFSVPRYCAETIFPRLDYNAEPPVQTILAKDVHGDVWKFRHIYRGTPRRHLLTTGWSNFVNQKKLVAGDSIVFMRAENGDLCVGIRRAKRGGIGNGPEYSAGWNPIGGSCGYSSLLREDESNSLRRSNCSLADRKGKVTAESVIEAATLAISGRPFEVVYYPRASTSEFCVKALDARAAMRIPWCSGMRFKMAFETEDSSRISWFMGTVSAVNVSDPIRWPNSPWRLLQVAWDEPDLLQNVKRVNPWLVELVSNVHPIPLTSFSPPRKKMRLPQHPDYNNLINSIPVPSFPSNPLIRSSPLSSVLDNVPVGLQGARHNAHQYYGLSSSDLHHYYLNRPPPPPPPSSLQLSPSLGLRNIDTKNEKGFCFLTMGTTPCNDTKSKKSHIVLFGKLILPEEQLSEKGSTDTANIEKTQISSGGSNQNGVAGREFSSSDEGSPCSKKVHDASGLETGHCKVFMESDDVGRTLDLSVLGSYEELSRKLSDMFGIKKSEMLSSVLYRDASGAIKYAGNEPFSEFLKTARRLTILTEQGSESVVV
Chain of UniProt Q9FKM7 (whole entry, looked up): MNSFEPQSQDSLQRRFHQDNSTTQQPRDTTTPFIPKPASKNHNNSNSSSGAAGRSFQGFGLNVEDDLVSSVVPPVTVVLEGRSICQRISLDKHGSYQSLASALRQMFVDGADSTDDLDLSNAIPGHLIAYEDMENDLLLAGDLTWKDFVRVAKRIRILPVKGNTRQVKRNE
Chain of UniProt Q9C5W9 (whole entry, looked up): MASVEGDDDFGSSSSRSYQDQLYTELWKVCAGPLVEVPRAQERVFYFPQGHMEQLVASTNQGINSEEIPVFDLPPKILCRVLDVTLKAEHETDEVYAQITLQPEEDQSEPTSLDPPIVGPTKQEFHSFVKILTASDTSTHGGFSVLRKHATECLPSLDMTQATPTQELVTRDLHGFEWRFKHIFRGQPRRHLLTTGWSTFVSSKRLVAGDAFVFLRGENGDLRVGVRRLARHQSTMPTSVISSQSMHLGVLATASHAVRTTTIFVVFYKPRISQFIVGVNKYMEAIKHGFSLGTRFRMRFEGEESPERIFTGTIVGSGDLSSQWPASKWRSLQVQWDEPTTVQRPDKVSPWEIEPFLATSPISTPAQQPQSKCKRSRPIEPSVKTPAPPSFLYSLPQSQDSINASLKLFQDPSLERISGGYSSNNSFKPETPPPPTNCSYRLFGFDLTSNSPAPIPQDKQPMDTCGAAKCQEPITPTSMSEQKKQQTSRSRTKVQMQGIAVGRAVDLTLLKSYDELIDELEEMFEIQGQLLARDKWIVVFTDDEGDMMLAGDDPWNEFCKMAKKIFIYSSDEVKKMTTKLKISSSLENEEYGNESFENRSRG
Chain of UniProt Q9LQE8 (whole entry, looked up): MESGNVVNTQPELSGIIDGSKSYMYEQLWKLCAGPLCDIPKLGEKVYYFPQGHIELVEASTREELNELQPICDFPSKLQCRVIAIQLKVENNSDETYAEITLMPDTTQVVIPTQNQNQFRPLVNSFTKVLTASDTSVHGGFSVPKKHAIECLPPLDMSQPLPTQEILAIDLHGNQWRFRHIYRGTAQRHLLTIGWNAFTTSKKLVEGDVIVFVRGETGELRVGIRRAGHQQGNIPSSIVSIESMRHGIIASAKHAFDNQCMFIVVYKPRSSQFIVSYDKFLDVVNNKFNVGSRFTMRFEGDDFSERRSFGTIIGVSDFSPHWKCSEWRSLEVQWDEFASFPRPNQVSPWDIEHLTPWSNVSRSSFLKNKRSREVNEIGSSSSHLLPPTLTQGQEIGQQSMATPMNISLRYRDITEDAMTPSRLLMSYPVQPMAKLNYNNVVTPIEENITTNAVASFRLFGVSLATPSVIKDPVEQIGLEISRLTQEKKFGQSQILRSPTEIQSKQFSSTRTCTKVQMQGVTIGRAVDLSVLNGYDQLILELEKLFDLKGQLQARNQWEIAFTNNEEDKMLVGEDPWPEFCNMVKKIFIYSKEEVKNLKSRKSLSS
Chain of UniProt P93024 (whole entry, looked up): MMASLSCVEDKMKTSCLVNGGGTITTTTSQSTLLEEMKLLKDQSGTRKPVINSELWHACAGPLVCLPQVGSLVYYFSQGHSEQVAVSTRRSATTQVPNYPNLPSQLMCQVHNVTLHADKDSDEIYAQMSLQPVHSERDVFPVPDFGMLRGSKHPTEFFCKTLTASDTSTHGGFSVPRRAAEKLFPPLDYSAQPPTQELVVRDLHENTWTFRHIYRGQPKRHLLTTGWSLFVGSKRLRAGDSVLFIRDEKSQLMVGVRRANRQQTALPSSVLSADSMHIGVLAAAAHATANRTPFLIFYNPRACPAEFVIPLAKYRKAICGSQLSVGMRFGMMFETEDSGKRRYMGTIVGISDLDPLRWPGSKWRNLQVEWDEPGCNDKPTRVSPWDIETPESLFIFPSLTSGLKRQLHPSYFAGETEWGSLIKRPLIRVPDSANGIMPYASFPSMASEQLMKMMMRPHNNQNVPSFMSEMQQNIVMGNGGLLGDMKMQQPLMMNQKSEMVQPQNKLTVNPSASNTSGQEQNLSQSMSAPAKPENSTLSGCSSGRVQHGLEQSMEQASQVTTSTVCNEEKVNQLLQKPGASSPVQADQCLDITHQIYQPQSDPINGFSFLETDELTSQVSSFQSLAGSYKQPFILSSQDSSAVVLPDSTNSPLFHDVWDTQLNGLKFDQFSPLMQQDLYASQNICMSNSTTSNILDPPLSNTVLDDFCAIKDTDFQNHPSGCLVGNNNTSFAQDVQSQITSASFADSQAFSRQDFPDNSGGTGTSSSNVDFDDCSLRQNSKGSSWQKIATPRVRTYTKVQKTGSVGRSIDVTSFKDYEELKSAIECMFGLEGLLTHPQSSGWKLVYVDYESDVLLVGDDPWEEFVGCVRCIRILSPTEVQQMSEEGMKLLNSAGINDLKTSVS
Chain of UniProt Q9SKN5 (whole entry, looked up): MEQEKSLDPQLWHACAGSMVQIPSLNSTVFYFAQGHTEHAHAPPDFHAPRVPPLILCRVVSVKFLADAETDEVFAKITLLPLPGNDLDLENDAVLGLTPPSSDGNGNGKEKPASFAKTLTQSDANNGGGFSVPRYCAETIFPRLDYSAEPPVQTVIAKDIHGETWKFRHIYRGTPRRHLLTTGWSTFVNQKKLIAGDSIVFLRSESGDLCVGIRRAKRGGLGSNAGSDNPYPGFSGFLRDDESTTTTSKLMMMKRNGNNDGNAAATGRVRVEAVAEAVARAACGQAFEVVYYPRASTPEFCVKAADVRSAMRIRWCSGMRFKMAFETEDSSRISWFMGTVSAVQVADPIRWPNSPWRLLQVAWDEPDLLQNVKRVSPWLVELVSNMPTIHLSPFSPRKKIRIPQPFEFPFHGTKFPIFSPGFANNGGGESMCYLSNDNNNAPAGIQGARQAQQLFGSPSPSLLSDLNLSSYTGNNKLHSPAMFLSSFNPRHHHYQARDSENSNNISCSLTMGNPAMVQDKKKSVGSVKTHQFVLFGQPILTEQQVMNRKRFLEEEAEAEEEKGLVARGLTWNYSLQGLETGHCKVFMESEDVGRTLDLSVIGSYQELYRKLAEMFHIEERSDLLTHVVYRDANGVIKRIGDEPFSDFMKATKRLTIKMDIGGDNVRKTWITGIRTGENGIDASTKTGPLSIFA
Chain of UniProt Q9ZTX8 (whole entry, looked up): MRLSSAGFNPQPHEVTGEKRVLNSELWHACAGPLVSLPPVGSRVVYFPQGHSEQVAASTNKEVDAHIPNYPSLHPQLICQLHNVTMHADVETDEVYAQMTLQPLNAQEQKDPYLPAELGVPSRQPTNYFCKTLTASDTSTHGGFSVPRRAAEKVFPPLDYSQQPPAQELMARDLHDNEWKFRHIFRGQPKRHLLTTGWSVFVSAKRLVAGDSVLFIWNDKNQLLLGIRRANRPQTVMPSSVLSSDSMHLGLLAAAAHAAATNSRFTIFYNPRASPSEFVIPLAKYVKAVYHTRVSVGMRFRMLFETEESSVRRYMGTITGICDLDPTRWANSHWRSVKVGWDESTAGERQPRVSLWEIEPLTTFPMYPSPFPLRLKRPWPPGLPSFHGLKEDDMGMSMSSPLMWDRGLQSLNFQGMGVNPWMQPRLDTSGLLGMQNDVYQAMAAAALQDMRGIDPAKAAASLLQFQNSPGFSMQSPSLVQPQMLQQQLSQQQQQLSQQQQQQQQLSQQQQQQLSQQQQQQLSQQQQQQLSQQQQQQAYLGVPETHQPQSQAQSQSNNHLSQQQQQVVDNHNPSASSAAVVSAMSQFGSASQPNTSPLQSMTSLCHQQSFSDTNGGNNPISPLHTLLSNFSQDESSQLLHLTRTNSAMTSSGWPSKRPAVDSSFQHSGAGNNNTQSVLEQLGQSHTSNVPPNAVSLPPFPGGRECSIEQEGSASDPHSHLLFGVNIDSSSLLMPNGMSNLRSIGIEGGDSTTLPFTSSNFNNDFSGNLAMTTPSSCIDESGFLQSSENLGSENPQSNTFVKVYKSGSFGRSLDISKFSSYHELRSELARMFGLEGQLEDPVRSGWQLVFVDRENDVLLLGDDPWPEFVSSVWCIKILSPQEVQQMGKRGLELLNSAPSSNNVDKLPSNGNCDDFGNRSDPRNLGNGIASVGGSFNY

Block 1 — target: CREM, bZIP domain (human); method: DHFR protein complementation; matrix: yeast; reference: wild-type JUN-FOS pair; direction: higher = stronger binding; measurement: binding fitness
Notes: single substitutions, most at no-binding floor
Parent: JUN, bZIP domain (human); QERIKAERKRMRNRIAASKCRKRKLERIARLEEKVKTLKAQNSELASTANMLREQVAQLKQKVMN; partner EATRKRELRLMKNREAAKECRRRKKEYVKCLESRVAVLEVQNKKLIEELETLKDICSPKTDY
Variant = K36I; value = -1.43 natural log
Variant = A29R; value = -1.42 natural log
Variant = E44T; value = -1.48 natural log
Variant = K34H; value = -1.53 natural log
Variant = T48R; value = -1.4 natural log
Variant = L52Y; value = -1.51 natural log
Variant = T37P; value = -1.52 natural log
Variant = E33W; value = -1.41 natural log
Variant = K39P; value = -1.48 natural log
Variant = A40W; value = -1.42 natural log
Variant = N42R; value = -1.45 natural log
Variant = Q55G; value = -1.53 natural log
Variant = L52D; value = -1.43 natural log
Variant = L59P; value = -1.36 natural log
Variant = L52G; value = -1.53 natural log
Variant = S43I; value = -1.39 natural log
Variant = I28S; value = -1.54 natural log
Variant = E32H; value = -1.46 natural log
Variant = A46H; value = -1.47 natural log
Variant = E54S; value = -1.22 natural log
Variant = R53D; value = -1.41 natural log
Variant = L52M; value = -1.47 natural log
Variant = I28R; value = -1.48 natural log
Variant = E44A; value = -1.26 natural log
Variant = N42K; value = -1.51 natural log

Block 2 — method: protein-binding microarray; molecule type: double-stranded DNA, one strand shown; matrix: in vitro; tested at: 2540 nM top; notes: 60-bp whole probe; added: salmon DNA 0.4 mg/ml; reference: random background probes; direction: higher = stronger binding; measurement: fitted relative affinity; constant ends, left off below: GCCTAGCAC … GTCTTGATTCGCTTGACGCTGCTG
Target: Interferon regulatory factor 3, full length, phosphomimetic (IRF3, Homo sapiens, UniProt Q14653, residues 1-427, S386D/S396D/S398D/S402D/T404D/S405D)
Residues (chain): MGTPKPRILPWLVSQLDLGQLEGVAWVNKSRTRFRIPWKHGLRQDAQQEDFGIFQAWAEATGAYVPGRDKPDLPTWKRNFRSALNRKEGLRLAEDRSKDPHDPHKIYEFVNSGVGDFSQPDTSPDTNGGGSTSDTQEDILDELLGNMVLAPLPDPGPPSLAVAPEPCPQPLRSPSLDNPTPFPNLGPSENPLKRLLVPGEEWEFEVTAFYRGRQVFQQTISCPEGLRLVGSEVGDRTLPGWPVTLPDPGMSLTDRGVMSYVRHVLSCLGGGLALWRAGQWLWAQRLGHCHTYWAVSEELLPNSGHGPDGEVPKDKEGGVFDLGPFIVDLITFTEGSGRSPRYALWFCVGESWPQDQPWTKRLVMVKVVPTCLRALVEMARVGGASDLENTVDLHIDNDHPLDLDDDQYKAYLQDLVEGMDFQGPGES
Sequence = TTAGATTTCAGGATCGATTAGTGCTAG; value = 1.17 z-score
Sequence = TTAGGTTTCGACTATCGGTCAGTGCTA; value = 2.31 z-score
Sequence = TTAGAACTGAGTTTCGGTTAGTGCTAG; value = 4.25 z-score
Sequence = GACGAACGGGGGTTTCGAGACGTGCTA; value = 0.643 z-score
Sequence = GACGGTTCCGGCTTCGGGACGTGCTAG; value = 1.3 z-score
Sequence = TTATGACTGCTTATCCTTTAGTGCTAG; value = 0.0131 z-score
Sequence = TTAGGTTTCCTTCCCCTTTAGTGCTAG; value = 5.45 z-score
Sequence = GACGGACTCCTTTTCCTGACGTGCTAG; value = 2.53 z-score
Sequence = TCAGGACTGCTACTGCTTTAGTGCTAG; value = -0.584 z-score
Sequence = TAACATATTCTCTTCTTGCAGTGCTAG; value = 1.25 z-score
Sequence = CGCTCTGTGCTCTTTGGGCTGTGCTAG; value = -0.285 z-score
Sequence = GATGGTCTCCTTATCCTGACGTGCTAG; value = 2.4 z-score
Sequence = CTGTTTCTGTGTCACAGAGGGTGCTAG; value = 3.96 z-score
Sequence = GGGCCGAGGCTGTGGCCACCGTGCTAG; value = -1.17 z-score
Sequence = TCACTCCTCTTTTTTTGACTGTGCTAG; value = 1.12 z-score
Sequence = CTAGGACTGGGTTTCGGTTAGTGCTAG; value = 3.03 z-score
Sequence = GACGGTATCGGGACTGGGAACGTGCTA; value = 1.85 z-score
Sequence = TCATGTCTGATTATTTAACTGTGCTAG; value = 0.265 z-score
Sequence = TACGGTCTCGGACTGGGGACGTGCTAG; value = -0.0774 z-score
Sequence = GACGGTTCCGGTTTCGGTACGTGCTAG; value = 7.76 z-score
Sequence = GACGGTTTCGACACTGGTGACGTGCTA; value = 3.14 z-score

Block 3 — method: DHFR PCA, deep sequencing; matrix: yeast; added: (+)-ABA 0.032 µM; reference: wild-type fitted maximum; direction: higher = stronger binding; measurement: relative binding score
Target: ABI1, truncated, D143A, DHFR fusion (Arabidopsis thaliana)
Notes: methotrexate growth selection, single substitutions
Parent: PYL1, truncated, DHFR fusion (Arabidopsis thaliana); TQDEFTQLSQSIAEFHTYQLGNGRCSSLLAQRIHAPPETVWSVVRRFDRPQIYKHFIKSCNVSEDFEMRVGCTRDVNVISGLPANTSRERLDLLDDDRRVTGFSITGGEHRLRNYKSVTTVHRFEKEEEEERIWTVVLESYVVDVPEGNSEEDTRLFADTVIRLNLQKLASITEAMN
Variant = L166W; value = 2.01%
Variant = P83Q; value = 13.9%
Variant = T101I; value = 77.5%
Variant = A158L; value = 46.1%
Variant = K168W; value = 12%
Variant = L29S; value = 2.51%
Variant = F15K; value = 2.16%
Variant = Q2P; value = 57.1%
Variant = H55A; value = 21%
Variant = V121N; value = 3.02%
Variant = W41E; value = 2.1%
Variant = N85Q; value = 49.9%
Variant = G107M; value = 3.45%
Variant = D96V; value = -3.58%
Variant = E147Q; value = 12.4%
Variant = E38A; value = 5.77%
Variant = G21R; value = 19.4%
Variant = Y141E; value = -1.09%
Variant = S26A; value = 13.5%
Variant = V40H; value = -5.1%
Variant = Y18M; value = 2.94%
Variant = A30I; value = 6.47%
Variant = R90A; value = -1.32%
Variant = T86V; value = 38.2%
Variant = I33W; value = 2.51%

Block 4 — Sequence: B1 (IAA30); method: two-hybrid; notes: weak activation fusion; direction: higher = firmer interaction; measurement: positive tests
B1: IAA30 (Arabidopsis thaliana, UniProt Q9M1R4); chain MGRGRSSSSSSIESSCKSNPFGVSSSNTRNLSTDLRLGLSFGSSSGQYYNGGDNHEYDGVGAAEEMMIMEEEEQNECNSVGSFYVKVNMEGVPIGRKIDLLSLNGYHDLITTLDYMFNASILWAEEEDMCSEKSHVLTYADKEGDWMMVGDVPWEMFLSSVRRLKISRAYHY
partner = IAA33 (Arabidopsis thaliana, UniProt Q9FKM7); how to read = reference: out of 4 tests; value = 2
partner = ARF14 497-605 (Arabidopsis thaliana, UniProt Q9LQE8); how to read = reference: out of 2 tests; value = 0
partner = ARF10 575-693 (Arabidopsis thaliana, UniProt Q9SKN5); how to read = reference: out of 4 tests; value = 0
partner = ARF4 660-788 (Arabidopsis thaliana, UniProt Q9ZTX9); how to read = reference: out of 4 tests; value = 0
partner = ARF18 482-602 (Arabidopsis thaliana, UniProt Q9C5W9); how to read = reference: out of 4 tests; value = 1
partner = ARF16 570-670 (Arabidopsis thaliana, UniProt Q93YR9); how to read = reference: out of 4 tests; value = 0
partner = ARF5 788-902 (Arabidopsis thaliana, UniProt P93024); how to read = reference: out of 4 tests; value = 2
partner = ARF6 790-935 (Arabidopsis thaliana, UniProt Q9ZTX8); how to read = reference: out of 4 tests; value = 2
partner = ARF12 500-593 (Arabidopsis thaliana, UniProt Q9XID4); how to read = reference: out of 4 tests; value = 2

Block 5 — target: CCNA1, cyclin fold, Cln2 fusion (human); method: yeast growth competition, sequencing; matrix: yeast; notes: weak parent motif; reference: not given; direction: higher = stronger binding; measurement: normalised enrichment score
Parent: SCAPER docking peptide (human); SNARRSLNFGGST
Variant = G10H; value = 0.604
Variant = T13R; value = 0.674
Variant = L7W; value = 0.0589
Variant = S1M; value = 0.613
Variant = R5P; value = 0.294
Variant = R5C; value = 0.0653
Variant = N8P; value = 0.252
Variant = N8R; value = 0.26
Variant = L7K; value = 0.549
Variant = R5E; value = 0.0111
Variant = L7V; value = 0.152
Variant = S1C; value = 0.816
Variant = R5D; value = 0.379
Variant = T13F; value = 0.587
Variant = F9L; value = 0.202
Variant = R5N; value = 0.198

Further values, each from its own experiment
Substance = PhoQ, residues 284 288 289 292 302 303 TTCLQL; target = PhoP, residues 12 14 15 18 19 LHHSG (Escherichia coli, UniProt P23836); test = Sort-seq, measured: YFP reporter; system = E. coli; conditions = PhoQ-PhoP variant library, added: 10 µM Mg2+; how to read = reference: high Mg2+ state, higher = stronger signaling; measurement = fold induction; value = 2.41

Excerpt of the above (block 5):
Variant = N8R; value = 0.26
Variant = L7K; value = 0.549
Variant = R5E; value = 0.0111
Variant = L7V; value = 0.152
Variant = S1C; value = 0.816
Variant = R5D; value = 0.379
Variant = T13F; value = 0.587
Variant = F9L; value = 0.202
Variant = R5N; value = 0.198
